Measurements pooled from the literature.
A part holds a random share of what one study measured. Changes are numbered by the printed parent chain.

Series 1 — technique: RNA Bind-n-Seq; form: RNA; sample: in vitro; tested at: 365 nM; baseline: no-protein control; direction: higher = stronger binding; endpoint: RBNS enrichment (R)
Target: RNA binding protein fox-1 homolog 2, RRM domain, GST-SBP tag (RBFOX2, Homo sapiens, UniProt O43251-10, residues 100-194)
Setting: natural RNA segment, single round, ends assumed
All sequences stand within: GGGAGUUCUACAGUCCGACGAUC … UGGAAUUCUCGGGUGCCAA
Target sequence (chain): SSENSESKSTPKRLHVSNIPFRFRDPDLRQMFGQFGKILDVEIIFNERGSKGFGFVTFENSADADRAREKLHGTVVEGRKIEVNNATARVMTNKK
AGCGAGGCUGGGCUGGCCAGCCACCACUGACUAUACCAACUGGGCCUCUGAUGUUCUUCCAGUGAGGCAUCUCUCUGGGAUGCAGAACUUCCCUCCAUCCACCCCUCUGG: 0.251
GUGCAUGUUGCCAUGAGGCCUUUCCCCAGUGUGGCCCCAGCCCGACAGGCAUGCACCAGUGCCGCCUGUGCCCACGUGUGCAGACUGUGGCUGCAGAGACCUUGCGACCA: 0.355
GCCCCCAAAGCACAGAAUGGAUUCAAUUUGUGGCCUGGGUUCAGCUCUGCCUCUGCAGUUGGCAGGUGUCCCAGAUUUGCUGUUGGACAGGGACCUUCUGCACUCCAUCC: 0.418
UUUUUAGGAAAAUUGCAUCUGGCUAUGUAUAAAACAGACCUAAAAUAAAUUUCUUUGAUGUCUUCCCUACUUUCUCCACAUCAAUCAGAUUAAAGUGUGUAACCCCAUCU: 0.758
AGACUGGCUCAAAAAAGAAAGAAGCAACGAAAACAAAAUGCACAGCCUGAAUGGACGUAGCACUGUCAUGUGGCAUUUGGAAAAUCUUUAAUUAUCCUAAUGUUAUUUCA: 1.16
UUUGUUGUUAUGGUUUACGUGAUGAAAAGGAGAAAAAACAGAAUCAUACCUGGGUGGAGAGAGGGAGACAAAUAGCCAUAAACUUCAUCCUGGAGAACAAGUUACCAUGC: 0.511
UCCCGGGCAGCAAAAUACAGCCUAAGGUUUGUAAACAUCAAUUCUAUCUCAGUUCAUCAGAGGGCCUGAGAAGCUGCGGGGCAGUGUAAAGUAAAGUAUGCUGGGCUGGU: 0.804
GACCCCCUCCCCAUUGAUGCCACCUCAAGGAAAGGGGGCAUGUUGCCAGCUGGUUCCCGCUAGGGAGCUUUCGAUGUGCAAUAUUAGAAAGGAGACAUGGAAAAAAAAAG: 0.378
UUCCCUUGUCGAUGCUGAUUCCUGGAGUCAGUUGGUUAUGAGUAGUAUAAGGGAUUCCCACUACAAAUGCAGUGUUCCCAUCUCAAAGCAAAACUGUAGUUCCCAAAAGA: 0.319
CACCGCGCUGUGGGUAGUGUGUGACCGUGGCUGUACUGUAUAGUGAACAUAGUUGGCAUAUCUUUGUUUGAAGUUUGUUGGUGACUCCACCAAACUGGUGUGAAAAAAGA: 0.543
CCUCCCUUCCCCAAGGAUCCACUCCCCCAGCUCCUUUAGAGAAUGGCUACUGCUGAGUCCUUUGGGGUUGAGGGAGAUGGGAGCUAGGGGGAGGGGAGGGAGAUGUCUUG: 0.224
UUCAACCAAGGCCACAUAAUAACCCAGUUAACUUACUCUUUAACCAGGAAUAUUAAGUUCUAUAACUAGUACUCAAGGUUUAACCUUAAAAUUAAGAUUUCCUUAACCUU: 0.333

Series 2 — technique: aptamer microarray, sandwich; form: DNA with 2'F-ANA; sample: in vitro; tested at: 200 nM; with: Cy3 exosite-II aptamer, 400 nM; direction: higher = stronger binding; endpoint: mean fluorescence intensity; oligonucleotide: GGTTGGTGTGGTTGG
Target: Prothrombin, mature alpha-thrombin (F2, Homo sapiens, UniProt P00734)
Setting: whole 15-mer aptamer, many near background
2'F-ANA at 1 3 4 9 11 12 14 15: 71.8 a.u.
2'F-ANA at 4 7 10 12 14 15: 63.7 a.u.
2'F-ANA at 3 4 6 7 8 9 12 13 15: 860 a.u.
2'F-ANA at 2 5 7 9 12 13 14 15: 68.6 a.u.
2'F-ANA at 1 2 5 6 8 9 10 14 15: 50.1 a.u.
2'F-ANA at 3 4 5 6 7 8 10 13: 503 a.u.
2'F-ANA at 3 4 5 7 8 11 12 13: 142 a.u.
2'F-ANA at 1 2 3 4 7 8 9 10 11 12 13 14: 50.4 a.u.
2'F-ANA at 2 4 6 8 10 13 14: 63.6 a.u.
2'F-ANA at 2 3 6 7 8 9 12 13: 824 a.u.
2'F-ANA at 1 4 5 11 12 15: 111 a.u.
2'F-ANA at 4 8 12 13: 516 a.u.
2'F-ANA at 1 3 5 6 8 10 11 13 14 15: 55.1 a.u.
2'F-ANA at 3 4 6 9 11 13 14: 223 a.u.
2'F-ANA at 4 5 6 7 8 10 12 13 14 15: 45.2 a.u.
2'F-ANA at 1 2 8 9: 219 a.u.
2'F-ANA at 5 7 9 10 13: 132 a.u.
2'F-ANA at 1 3 9 11 12 14: 106 a.u.
2'F-ANA at 1 2 6 11 14 15: 57.1 a.u.
2'F-ANA at 3 6 7 8 9 10 11 12 14 15: 326 a.u.
2'F-ANA at 2 3 4 6 7 11: 522 a.u.
2'F-ANA at 1 3 4 8 13: 166 a.u.
2'F-ANA at 5 6 7 8 9 13 15: 56.3 a.u.
2'F-ANA at 2 3 4 5 6 8 11 12 13: 95.1 a.u.
2'F-ANA at 1 2 3 7 10 12 14 15: 60.7 a.u.

Series 3 — technique: DHFR PCA, deep sequencing; sample: yeast; with: (+)-ABA 1.4 µM; baseline: wild-type fitted maximum; direction: higher = stronger binding; endpoint: relative binding score
Target: ABI1, truncated, D143A, DHFR fusion (Arabidopsis thaliana)
Setting: methotrexate growth selection, single substitutions
Starting sequence: PYL1, truncated, DHFR fusion (Arabidopsis thaliana); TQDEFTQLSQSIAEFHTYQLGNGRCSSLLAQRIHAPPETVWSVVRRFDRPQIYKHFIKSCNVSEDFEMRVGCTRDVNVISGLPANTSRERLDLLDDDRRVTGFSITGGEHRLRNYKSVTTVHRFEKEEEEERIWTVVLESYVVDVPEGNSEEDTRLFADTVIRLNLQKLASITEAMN; partner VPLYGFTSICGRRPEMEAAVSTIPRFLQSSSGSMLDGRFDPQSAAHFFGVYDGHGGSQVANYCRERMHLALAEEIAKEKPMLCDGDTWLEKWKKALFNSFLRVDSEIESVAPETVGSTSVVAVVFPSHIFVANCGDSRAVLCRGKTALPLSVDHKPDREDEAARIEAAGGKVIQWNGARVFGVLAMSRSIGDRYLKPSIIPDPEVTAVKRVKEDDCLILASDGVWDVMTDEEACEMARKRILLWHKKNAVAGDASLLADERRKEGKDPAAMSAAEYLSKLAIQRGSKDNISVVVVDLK
L29F: -2.69%
V76E: -6.72%
F66Q: 40.4%
V142H: 5.52%
D3V: 25.1%
F56D: -2.62%
H16C: -12.2%
E67W: 11.1%
R132K: 80%
V136E: -0.511%
E174G: -3.8%
P36V: 6.52%
Y18S: 3.83%

Other studies, line by line
PRPF6 (Homo sapiens, UniProt O94906) — cross-linked residues (PRPF8 (Homo sapiens, UniProt Q6P2Q9); cross-linking MS; cell fractions; with: DMTMM): E99 to K480

Repeated from above (series 2):
2'F-ANA at 2 4 6 8 10 13 14: 63.6 a.u.
2'F-ANA at 2 3 6 7 8 9 12 13: 824 a.u.
2'F-ANA at 1 4 5 11 12 15: 111 a.u.
2'F-ANA at 4 8 12 13: 516 a.u.
2'F-ANA at 1 3 5 6 8 10 11 13 14 15: 55.1 a.u.
2'F-ANA at 3 4 6 9 11 13 14: 223 a.u.
2'F-ANA at 4 5 6 7 8 10 12 13 14 15: 45.2 a.u.
2'F-ANA at 1 2 8 9: 219 a.u.
2'F-ANA at 5 7 9 10 13: 132 a.u.
